# Assay results pooled from the literature.
# Lines come from different studies, so protocols differ. Several values in a cell are separate wells, animals, samples, runs or records. ± gives the spread as reported.
SMILES,test,test system,setting,scale,quantity,result
COc1cccc(-c2n[nH]c(SCc3ccccn3)n2)c1OC,,"Sprague-Dawley rats, both sexes","oral dietary, 30 mg/kg/day, day 7, 24 h",,plasma concentration,575 ng/mL
CCCOc1ccc(NC(=O)CN2CCN(C)CC2)cc1-c1nc(CC)c(CC)c(=O)[nH]1,,healthy Chinese men,"10 mg, with: placebo alcohol",,nasal obstruction incidence,20%
CCCCc1oc2ccccc2c1C(=O)c1cc(I)c(OCCN(CC)CC)c(I)c1,,"male Hartley guinea pigs, anaesthetized","intravenous, 20 mg/kg over 10 min, after infusion",,heart rate,179 ± 0.6 beats/min
COc1cccc(OC)c1-c1cc(C(=O)NC2(C(=O)O)C3CC4CC(C3)CC2C4)nn1-c1ccc(C(=O)N(C)CCCN(C)CCCN(C)C(=O)CN2CCN(CC(=O)[O-])CCN(CC(=O)[O-])CCN(CC(=O)[O-])CC2)cc1C(C)C.[177Lu+3] (centres unmarked),,mouse HT-29 xenograft,"4 h, biodistribution",relative to: tumour over stomach,tumour-to-stomach ratio,21.5
O=C(O)CCc1ccc(O)c(O[C@@H]2O[C@H](C(=O)O)[C@@H](O)[C@H](O)[C@H]2O)c1,,human CSF,"concentration not given, mean",,CSF concentration,not detected
CCC(C)n1ncn(-c2ccc(N3CCN(c4ccc(OCC5COC(Cn6cncn6)(c6ccc(Cl)cc6Cl)O5)cc4)CC3)cc2)c1=O (centres unmarked),,"human, plasma","oral, dose not given, day 11 predose, median",,trough plasma concentration,29.5 ng/mL
COc1cc2nccc(Oc3ccc(NC(=O)c4cc5c(n(-c6ccccc6)c4=O)CCCC5=O)nc3)c2cc1OC,,"human, relapsed/refractory AML","oral, 3 mg once daily, CTCAE grading",,patients with TEAEs grade ≥3,100%
CCc1c(-c2ccccc2)c(-c2ccccc2)nn1-c1ccccc1-c1cccc(OCC(=O)O)c1,,Sprague-Dawley rat,oral,,MRT(0-t),2.74 h and 2.97 h and 2.96 h
COc1ccc2[nH]c([S@+]([O-])Cc3ncc(C)c(OC)c3C)nc2c1,,"human male, dried plasma spots","oral, 5 mg racemic omeprazole, with: fluvoxamine and voriconazole",,AUC(0-8 h),1.58 µM·h
N#Cc1ccc2c(c1)[C@H]1CCCN(C(=O)c3ccc4[nH]cnc4c3)[C@H]1C2,,human,"40 mg, day 15",,median ACTH level,7.4 pmol/L
CCN1CCN(Cc2ccc(NC(=O)c3ccc(C)c(NC(=O)c4cncc(-c5cccs5)c4)c3)cc2C(F)(F)F)CC1,LC-MS/MS,"C57BL/6 mouse, plasma","intraperitoneal, 30 mg/kg single dose, 0.25 h",,plasma concentration,552 ng/mL and 532 ng/mL and 956 ng/mL
C[C@@H]1CN(c2c(F)c(N)c3c(=O)c(C(=O)O)cn(C4CC4)c3c2F)C[C@H](C)N1,,"male Hartley guinea pigs, anaesthetized","intravenous, 3 mg/kg group, baseline before infusion",,heart rate,238 ± 0.5 beats/min
Cc1ccc([C@@H]2O[C@H](CO)[C@@H](O)[C@H](O)[C@H]2O)cc1Cc1ccc(-c2ccc(F)cc2)s1,,Japanese type 2 diabetes patients,"100 mg, day 16, 24 h urine collection",relative to: baseline,urinary chloride excretion change,-26.3 mEq
COc1ncc(-c2nc3c(n2C(C)C)[C@H](c2ccc(Cl)cc2)N(c2cc(Cl)cn(C)c2=O)C3=O)c(OC)n1,LC-MS/MS,"human, plasma","oral, 1 mg, cycle 1 day 1, low-dose arm",,AUC(0-last),134 ng·h/mL
Cc1ccc(CN2CCN(C(=O)/C=C/c3ccc(O)cc3O)CC2)cc1,,human,1 µM,,CLint scaled,46.1 mL/min/kg
C=CCn1c(=O)c2cnc(Nc3ccc(N4CCN(C)CC4)cc3)nc2n1-c1cccc(C(C)(C)O)n1,,human,"oral, 150 mg twice daily, monotherapy lead-in, -5 days",geometric mean,AUC(0-t),5.04 µM·h
CC[C@H](C)[C@H](NC(=O)[C@H](Cc1ccccc1)NC(=O)[C@H](CCC(=O)O)NC(=O)[C@H](CCCCNC(=O)COCCOCCNC(=O)COCCOCCNC(=O)CC[C@H](NC(=O)CCCCCCCCCCCCCCCCC(=O)O)C(=O)O)NC(=O)[C@H](C)NC(=O)[C@H](C)NC(=O)[C@H](CCC(N)=O)NC(=O)CNC(=O)[C@H](CCC(=O)O)NC(=O)[C@H](CC(C)C)NC(=O)[C@H](Cc1ccc(O)cc1)NC(=O)[C@H](CO)NC(=O)[C@H](CO)NC(=O)[C@@H](NC(=O)[C@H](CC(=O)O)NC(=O)[C@H](CO)NC(=O)[C@@H](NC(=O)[C@H](Cc1ccccc1)NC(=O)[C@@H](NC(=O)CNC(=O)[C@H](CCC(=O)O)NC(=O)C(C)(C)NC(=O)[C@@H](N)Cc1cnc[nH]1)[C@@H](C)O)[C@@H](C)O)C(C)C)C(=O)N[C@@H](C)C(=O)N[C@@H](Cc1c[nH]c2ccccc12)C(=O)N[C@@H](CC(C)C)C(=O)N[C@H](C(=O)N[C@@H](CCCNC(=N)N)C(=O)NCC(=O)N[C@@H](CCCNC(=N)N)C(=O)NCC(=O)O)C(C)C,12-lead Holter ECG,healthy humans,"subcutaneous, 1.5 mg once weekly, 48 h, steady state",relative to: placebo,QT change from baseline,-22.7 ms
O=C(NCc1ccc(CNC23CC4CC(CC(C4)C2)C3)cc1)c1csc2nc[nH]c(=O)c12,,human red blood cells in PBS,"1 h, 37 °C, estimated, weak activity",,EC50,> 100 µM
C=CC(=O)Nc1cc(Nc2nccc(-c3cn(C)c4ccccc34)n2)c(OC)cc1N(C)CCN(C)C,storage stability,human dried blood spot,"2 h, -80 °C, LLOQ level",,recovery,82.4%
O=C(O)c1ccccc1,,human CSF,"concentration not given, mean",,CSF concentration,not detected
CCc1cc(C(=O)NC)c2nccc(N3CCc4c(cc(Cn5ccnc5)cc4-c4cn(C)nc4C(F)(F)F)C3=O)c2c1,measured: MPV,Sprague Dawley rat,"oral, 100 mg/kg once daily, 7 days",relative to: vehicle,change in clinical chemistry or haematology parameter,-0.62%
[18F]c1ccc(-c2ccc3c(c2)[nH]c2ccncc23)cn1,ex vivo biodistribution,"APP/PS1 mouse, AD model, skin","intravenous, 30 min",,SUV,0.174 ± 0.042
O=C(Nc1nc2cccc(-c3ccc(CN4CCS(=O)(=O)CC4)cc3)n2n1)C1CC1,measured: blood calcium increased,rheumatoid arthritis patients,"oral, 150 mg once daily, 4 weeks, any relatedness",,treatment-emergent adverse events,0%
C[C@@H](N)C1CCN(S(=O)(=O)c2cccc3cnccc23)CC1,measured: Dizziness,healthy volunteers,"150 mg, fed",,TEAE incidence,0%
NC1(C(=O)N[C@@H](CCO)c2ccc(Cl)cc2)CCN(c2nc[nH]c3nccc2-3)CC1,,metastatic CRPC patients,"480 mg b.i.d., grade 3 to 4, treatment-related, with: enzalutamide 160 mg daily",,incidence of blood creatinine increased,0%
CNC(=O)c1ccc(-c2cnc3ncc(Cc4ccc5ncccc5c4)n3n2)cc1F,"CTCAE v4.0, any causality",human hepatocellular carcinoma patients,"oral, 600 mg twice daily, expansion cohort at RP2D",,peripheral edema incidence (all grades),55%
N[C@@H](Cc1ccc(O)c(O)c1)C(=O)O,,"MPTP-lesioned marmoset, dyskinetic",20 mg/kg,,time to peak dyskinesia,30 min
CO[C@H]1C[C@@H]2CC[C@@H](C)[C@@](O)(O2)C(=O)C(=O)N2CCCC[C@H]2C(=O)O[C@H]([C@H](C)C[C@@H]2CC[C@@H](OC(=O)NCCOCCOCCOCCOCCOCCOCCOCCOCCC(=O)N3CCc4cc(Cn5nc(-c6ccc7oc(N)nc7c6)c6c(N)ncnc65)ccc4C3)[C@H](OC)C2)C[C@@H](O)[C@H](C)/C=C(\C)[C@@H](O)[C@@H](OC)C(=O)[C@H](C)C[C@H](C)/C=C/C=C/C=C/1C,,"human, plasma","intravenous, 12 mg, cycle 1",relative to: day 15 over day 1,AUClast ratio,1.9
COc1ccc([C@@H](O)c2cc(-c3ncnc4cc(N5CCOCC5)ccc34)c(F)cc2Cl)nn1,,locally advanced rectal cancer patients,"250 mg, with: capecitabine and radiotherapy",,anaemia TEAE incidence,67%
CC(C)NCC(O)COc1cccc2ccccc12 (centres unmarked),,"male Hartley guinea pigs, anaesthetized","intravenous, 1 mg/kg group, baseline before infusion",,heart rate,221 ± 0.4 beats/min
O=C1NCCc2nc(OCc3cccc(F)c3)ccc21,modified Irwin test,"Sprague-Dawley rat, male","oral, 100 mg/kg, 4 h",higher = stronger effect,rigid stance score,0
CNC(=O)c1cc(Oc2ccc(NC(=O)Nc3cc(C(C)(C)C)nn3-c3ccc4ncccc4c3)c(F)c2)ccn1,,patients,"oral, dose not given, cycles 1 and 2, Low AUC subgroup",,patients with grade 3 cardiac disorders,7%
O=C(N[C@H](Cc1c[nH]c2ccccc12)C(=O)Nc1ccncc1)c1ccc(-c2cc(C(F)(F)F)ccc2F)cc1F,,"Swiss Webster mouse, female, fat","oral, 50 mg/kg, 2 h, 20% Kolliphor vehicle",,concentration,18.2 µM
O=C(O)CCc1ccc(O)cc1O,,human CSF,"concentration not given, mean",,CSF concentration,not detected
CCN1/C(=C/C(C)=O)Sc2ccc(F)cc21,,cynomolgus monkey,"oral, 30 mg/kg, 24 h post-dose",,QT interval,264 ± 6 ms
C[C@@H](Nc1cc(F)cc(F)c1)c1cc(C(=O)N(C)C)cc2c(=O)cc(N3CCOCC3)oc12,measured: drug-induced liver injury,patients with advanced solid tumours,"oral, dose not given, dose expansion phase I",,treatment-related serious adverse events,0%
CC(=O)N(C)[C@H]1CCN(C(=O)c2cnc3c(c2)C[C@](C)(c2ccc(F)cc2)N3)C1,,"healthy male subjects, multiple rising dose","oral, 15 mg once daily",,adverse events leading to discontinuation,0%
OC[C@H]1O[C@@H](c2ccc(F)c(Cc3cc4ccccc4s3)c2)[C@H](O)[C@@H](O)[C@@H]1O,,Japanese type 1 diabetes patients,"oral, 50 mg/day, day 13",,hypoglycaemia adverse events,4 % patients
COc1cc(Nc2ncc3c(n2)-c2ccc(Cl)cc2C(c2c(F)cccc2OC)=NC3)ccc1C(=O)O,,cancer patients,"oral, dose not given, grade 1 any attribution, with: pembrolizumab",,patients with nasal congestion,13%
CC(C)(C(=O)N1CCOc2c(C#N)cncc2C1)C(F)F,measured: Gastrointestinal disorders,human,"oral, 10 mg once daily, 14 days, multiple ascending dose",,subjects with adverse event,12.5%
Cc1ccc(Sc2ccccc2N2CCNCC2)c(C)c1,measured: Somnolence,healthy adult men,"oral, 20 mg single dose, 10 day",,participants with TEAE,0%
CCOc1c([C@H](C)n2nc(C)c3c(N)ncnc32)cc(Cl)c(F)c1[C@@H]1CNC(=O)C1,,"patients with B-cell malignancies, plasma","oral, 30 mg, day 15, all cohorts, monotherapy",,half-life,10.2 ± 3 h
O=C(CCCN1CCC(O)(c2ccc(Cl)cc2)CC1)c1ccc(F)cc1,,"male Hartley guinea pigs, anaesthetized","intravenous, 0.1 mg/kg over 10 min, after infusion",,heart rate,222 ± 0.4 beats/min
CC(C)n1c(Nc2cccnc2)nc2cnc(Nc3ccc(N4CCN(C)CC4)cc3)nc21,measured: haemoglobin increased,"healthy human, male","oral, dose not given, CTCAE grade 1-3",,subjects with TEAE,2.4%

# Repeated from above:
SMILES,test,test system,setting,scale,quantity,result
COc1ccc([C@@H](O)c2cc(-c3ncnc4cc(N5CCOCC5)ccc34)c(F)cc2Cl)nn1,,locally advanced rectal cancer patients,"250 mg, with: capecitabine and radiotherapy",,anaemia TEAE incidence,67%
CC(C)NCC(O)COc1cccc2ccccc12 (centres unmarked),,"male Hartley guinea pigs, anaesthetized","intravenous, 1 mg/kg group, baseline before infusion",,heart rate,221 ± 0.4 beats/min
O=C1NCCc2nc(OCc3cccc(F)c3)ccc21,modified Irwin test,"Sprague-Dawley rat, male","oral, 100 mg/kg, 4 h",higher = stronger effect,rigid stance score,0
CNC(=O)c1cc(Oc2ccc(NC(=O)Nc3cc(C(C)(C)C)nn3-c3ccc4ncccc4c3)c(F)c2)ccn1,,patients,"oral, dose not given, cycles 1 and 2, Low AUC subgroup",,patients with grade 3 cardiac disorders,7%
O=C(N[C@H](Cc1c[nH]c2ccccc12)C(=O)Nc1ccncc1)c1ccc(-c2cc(C(F)(F)F)ccc2F)cc1F,,"Swiss Webster mouse, female, fat","oral, 50 mg/kg, 2 h, 20% Kolliphor vehicle",,concentration,18.2 µM
